Measured values from different studies.
Numbered parts are unrelated; each lists some results of a single study.

Series 1
Target: Replicase polyprotein 1ab, polymerase (rep, Severe acute respiratory syndrome coronavirus 2, UniProt P0DTD1)
Read-out: enzyme activity
Action: inhibitor
Tested at: 20 µM
`CCOC(=O)NNc1ccc(N(CC)CC(C)O)nn1` (stereo not shown) gave an inhibition of -6.63%.
`Cc1ccc(-c2ccc(F)cc2COc2ccc(CCC(=O)O)cc2)cc1` gave an inhibition of 24.4%.
The inhibition of `Cn1c(=O)c2c(ncn2CC(O)CO)n(C)c1=O` (stereo not shown) is reported as 6.41%.
`CCCCCCOc1nsnc1C1=CCCN(C)C1` gave an inhibition of -10.1%.
With `N=C(N)NCc1cccc(I)c1` the inhibition was 3.76%.
The inhibition of `CC#CCn1c(N2CCC[C@@H](N)C2)nc2c1c(=O)n(Cc1nc(C)c3ccccc3n1)c(=O)n2C` is reported as -0.27%.
For `COc1cc2ncnc(Oc3cccc(NC(=O)Nc4cc(C(C)(C)C(F)(F)F)on4)c3)c2cc1OC`, the inhibition was -1.1%.
For `CO[C@H]1C[C@H](O[C@H]2[C@H](C)O[C@@H](O[C@@H]3/C(C)=C/C[C@@H]4C[C@@H](C[C@]5(C=C[C@H](C)[C@@H](C6CCCCC6)O5)O4)OC(=O)[C@@H]4C=C(C)[C@@H](O)[C@H]5OC/C(=C\C=C\[C@@H]3C)[C@]54O)C[C@@H]2OC)O[C@@H](C)[C@@H]1O`, the inhibition was -0.85%.
The inhibition of `CN1CCN(c2ccc(C(=O)Nc3n[nH]c4ccc(Cc5cc(F)cc(F)c5)cc34)c(NC3CCOCC3)c2)CC1` is reported as -1.19%.
`O=C(Oc1cccc2cccnc12)c1ccccc1` has an inhibition of -4.42%.
With `O=C(NCCCCN1CCN(c2cccc(Cl)c2Cl)CC1)c1ccc2c(c1)Cc1ccccc1-2` the inhibition was 5.65%.
For `CC(C(=O)O)c1ccc(C(=O)c2ccccc2)s1` (stereo not shown), the inhibition was 3.85%.
With `CNCC(O)c1ccc(O)c(O)c1` (racemic) the inhibition was 0.98%.
For `O=C1CN=C(c2cccc(Br)c2)c2oc3ccccc3c2N1`, the inhibition was 0.63%.
The inhibition of `COC(=O)Nc1nc2ccc(SC(C)C)cc2[nH]1` is reported as -2.09%.
For `CC(C)NC[C@@H](C(=O)N1CCN(c2ncnc3c2[C@H](C)C[C@H]3O)CC1)c1ccc(Cl)cc1`, the inhibition was 0.45%.
`COc1cc2c(NC3CCN(C)CC3)nc(N3CCCN(C)CC3)nc2cc1OCCCN(C)C` gave an inhibition of 102%.
`CCCCCCCCCCCCCCCC(=O)OC(C)C` has an inhibition of 0.23%.
`CCS(=O)(=O)N(Cc1cccnc1)c1cccc(-c2ccc(C#N)cc2)c1` has an inhibition of 14.3%.
`C[C@@H]1O[C@@H](OC[C@H]2O[C@@H](Oc3c(-c4ccc(OCCO)c(OCCO)c4)oc4cc(OCCO)cc(O)c4c3=O)[C@H](O)[C@@H](O)[C@@H]2O)[C@H](O)[C@H](O)[C@H]1O` has an inhibition of 10.1%.
`Oc1ccc([C@H]2COc3cc(O)ccc3C2)cc1` has an inhibition of 2.63%.
For `O=C(OCC(COC(=O)c1cccnc1)(COC(=O)c1cccnc1)COC(=O)c1cccnc1)c1cccnc1`, the inhibition was 5.68%.
With `Cc1cccc(C)c1NC(=O)C(C)N` (stereo not shown) the inhibition was 3.7%.
The inhibition of `CCC(CC)CC1(C(=O)Nc2ccccc2SC(=O)C(C)C)CCCCC1` is reported as 4.76%.
For `CC1(C)[C@@H](O)CC[C@]2(C)[C@H]3C(=O)C=C4[C@@H]5C[C@@](C)(C(=O)O)CC[C@]5(C)CC[C@@]4(C)[C@]3(C)CC[C@@H]12`, the inhibition was 2.98%.

Series 2
Target: Interferon regulatory factor 5, full length, phosphomimetic (IRF5, Homo sapiens, UniProt Q13568-2, residues 1-514, K96S/S451D/S453D/S456D/S462D)
Method: protein-binding microarray
Form: double-stranded DNA, one strand shown
Sample: in vitro
Tested at: 250 nM
Setting: 60-bp whole probe
Added: salmon DNA 0.4 mg/ml
Baseline: random background probes
Direction: higher = stronger binding
All sequences stand within: GCCTAGCAC … GTCTTGATTCGCTTGACGCTGCTG
With `TTAGATTTCAGTTCCTATTAGTGCTAG` the log fluorescence was 2.3 z-score.
For `CCGTGTTTCTCAAATGTTTTGGTGCTA`, the log fluorescence was 1.25 z-score.
`TCATGCTTCAGGTTTACCACTGTGCTA` gave a log fluorescence of 0.196 z-score.
With `TCAAACCTGGGTCTCTGACTGTGCTAG` the log fluorescence was -0.58 z-score.
`GTCGGTTTCGGTATCGGGACGTGCTAG` gave a log fluorescence of 10.6 z-score.
`TAAGGTTTCCTTTCCCTTTAGTGCTAG` gave a log fluorescence of 1.88 z-score.
With `GACGGTTTCCTTTTCTTGACGTGCTAG` the log fluorescence was 0.984 z-score.
With `TCATCTTATCCTATCAGACTGTGCTAG` the log fluorescence was 0.272 z-score.

Series 3
Cell line: HEK-293T
Read-out: pseudovirus infection
Method: FDA-approved drug library screen
Organism: VSV pseudotyped with SARS-CoV-2 spike
Tested at: 10 µM
Time: 16 h
Baseline: vehicle-treated
`Nc1nc(Cl)nc2c1ncn2[C@H]1C[C@H](O)[C@@H](CO)O1` gave a GFP-positive cells of 75.8%.
The GFP-positive cells of `OC[C@@H](O)[C@@H](O)[C@H](O)[C@H](O)CO` is reported as 73.5%.
`Cc1ccc(S(=O)(=O)NC(=O)NN2CCCCCC2)cc1` has a GFP-positive cells of 84.9%.

Series 4
Target: Histone acetyltransferase KAT6A, winged helix 1, GST fusion (KAT6A, Homo sapiens, UniProt Q92794, residues 1-85)
Method: protein binding microarray
Form: double-stranded DNA, one strand shown
Sample: in vitro
Tested at: not given
Setting: 8-mer, flanks averaged, mean of 2 arrays, mostly near background
Baseline: not given
Direction: higher = stronger binding
Residues (chain): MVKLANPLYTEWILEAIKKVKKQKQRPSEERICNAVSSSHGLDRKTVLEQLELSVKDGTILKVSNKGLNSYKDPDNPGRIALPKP
`CATGCGGC` gave an E-score of 0.255.
With `ACAAATCG` the E-score was 0.0691.
`CCTTAGCA` has an E-score of -0.0872.
`ACGACTCT` has an E-score of -0.236.
The E-score of `ATCCAATA` is reported as -0.102.
`AATACTAA` has an E-score of -0.0179.
For `GAGGGACC`, the E-score was 0.0155.
For `CGAGATGC`, the E-score was 0.0298.

Series 5
Target: RNA binding protein fox-1 homolog 2, RRM domain, GST-SBP tag (RBFOX2, Homo sapiens, UniProt O43251-10, residues 100-194)
Method: RNA Bind-n-Seq
Form: RNA
Sample: in vitro
Tested at: 365 nM
Setting: natural RNA segment, single round, ends assumed
Baseline: no-protein control
Direction: higher = stronger binding
Under “RBNS enrichment (R)”, `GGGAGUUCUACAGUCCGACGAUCAGUAUGAGCCCAUCUCACUGGGCUAUCUGACUCUCCACCCUCCUUGUUAGUCUCUGAGGAACAGUGCAACUCCUUCGAACAUGAUUUAGAAAGAGGGCAUUCAUGCAUAGUGGAAUUCUCGGGUGCCAA` is recorded as 0.41.
`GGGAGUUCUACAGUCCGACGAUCCCAACAUUUGAGAGCAGAGAGUUUGCACCACCACUUCCCGGUUCAAGGUUCUUUUAACUGCUAACUGAAAAUGGAAUGAAAUUGCAUCCAUAGAUACUGAUGGGAUGCCAUGGAAUUCUCGGGUGCCAA`: “RBNS enrichment (R)” 2.81.
For `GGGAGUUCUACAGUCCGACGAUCUACUACCCCCAGGUUUUCAAAUGAAUUAACAGAAGCAGAGGUGUUGAGUAAAUGUAUCCAAGAGACACAUCUAGUAGGGAGUUCAGUUUUAAGAUAGUUUGGCUCCAGAGUGGAAUUCUCGGGUGCCAA`, “RBNS enrichment (R)” read 0.481.
Under “RBNS enrichment (R)”, `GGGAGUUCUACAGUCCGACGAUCUUCUCCUCAGCGCCACACUCACAUAUUUCUCUGCUUUGGUUCUACAAUCUGUUGUUGAGUUCCCCCUCUCUGCAUCAGUCUUCCCUGGAAAUGGAGGACCUGGUGCAGUAUGGAAUUCUCGGGUGCCAA` is recorded as 0.435.
`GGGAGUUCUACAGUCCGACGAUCUCUGUUAAAUCCUGCCCUCCUUGGUGCUAGAUCCAGUUGUGCCUCAGGGCAGAGGAAACAAAACACAGCUAUCCUGUUGGCCUGUGUUGUGGUUUUGAAGUUUGUACUUUUGGAAUUCUCGGGUGCCAA` — result for “RBNS enrichment (R)”: 0.398.
For `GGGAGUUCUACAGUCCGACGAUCUUUCCUGUCAGCUGUUGACACCUUGGUAGGAGCUCUCAUUAUUACAUUCUCCAUUCUCCAUUUCCCUCUUCAAGGAUGGGCAAUCUACCAAAAUCCCUCAAGAUAACCCUUGGAAUUCUCGGGUGCCAA`, “RBNS enrichment (R)” read 0.805.
Under “RBNS enrichment (R)”, `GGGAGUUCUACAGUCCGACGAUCAGCCGGGACCGUGCCAUUGUACUCCAGCCUGGGUGACAGAGCGAGAUUCCGUCUCAAAAAAAAAAAAAAAAAGCCCACCUGAAAGCCUGUCUCUUUCCACUUUGUUGGCCUGGAAUUCUCGGGUGCCAA` is recorded as 0.695.
`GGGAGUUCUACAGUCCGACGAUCAGCAUCGUAAAUUAUCCAAGGAAGAUAUGGCAGGCCAAGCUGGUGCUGACCGCUGGUUUGAUUUUCUUUUUUGUUUUUGUUUUUGUCUCUGUCUCCUUGGGUGUCUGCUCUGGAAUUCUCGGGUGCCAA` — result for “RBNS enrichment (R)”: 1.07.

Repeated from above (series 1):
`O=C(Oc1cccc2cccnc12)c1ccccc1` has an inhibition of -4.42%.
With `O=C(NCCCCN1CCN(c2cccc(Cl)c2Cl)CC1)c1ccc2c(c1)Cc1ccccc1-2` the inhibition was 5.65%.
For `CC(C(=O)O)c1ccc(C(=O)c2ccccc2)s1` (stereo not shown), the inhibition was 3.85%.
With `CNCC(O)c1ccc(O)c(O)c1` (racemic) the inhibition was 0.98%.
For `O=C1CN=C(c2cccc(Br)c2)c2oc3ccccc3c2N1`, the inhibition was 0.63%.
The inhibition of `COC(=O)Nc1nc2ccc(SC(C)C)cc2[nH]1` is reported as -2.09%.
